Assay results pooled from the literature.
Compare with care: the assays were run in different laboratories.

Compound | organism | test | test system | setting | MIC
Oc1c(Cl)cc(Cl)c2cccnc12 | Listeria monocytogenes | microbial growth, agar dilution | – | – | 37.4 µM
O=[N+]([O-])c1c(Br)c(Cl)c2cccnc2c1O | bacteria | – | – | panel of 19 strains, 5 species | 2 to 8 µg/mL
CCCCCCCCCCCCCCCC(=O)O[C@H]1[C@H](C)O[C@@H](O[C@H]2[C@H](N(C)C)[C@@H](O)[C@H](O[C@H]3[C@@H](CC=O)C[C@@H](C)[C@@H](O[C@H]4CC[C@H](N(C)C)[C@@H](C)O4)/C=C/C=C/C[C@@H](C)OC(=O)C[C@@H](O)[C@@H]3OC)O[C@@H]2C)C[C@@]1(C)O | Staphylococcus aureus, Staphylococcus epidermidis, Bacillus subtilis | – | incl. MRSA | range over four strains | 4 to 32 µM
CC[C@@H](C)[C@@H](NC(=O)[C@@H](C)NC(=O)[C@@H](CCCCN)NC(=O)[C@@H](CC(C)C)NC(=O)[C@@H](C)NC(=O)[C@H](NC(=O)[C@@H](CCCCN)NC(=O)[C@@H](CC(C)C)NC(=O)[C@H](NC(=O)[C@@H](CCCCN)NC(=O)[C@@H](CCCCN)NC(=O)[C@@H](CCCCN)NC(=O)[C@@H](C)NC(=O)[C@@H](CCCCN)NC(=O)[C@@H](CO)NC(=O)[C@@H](Cc1ccccc1)NC(=O)[C@H](NC(=O)[C@@H](CCCCN)NC(=O)[C@@H](CC(C)C)NC(=O)[C@@H](Cc1ccccc1)NC(=O)[C@@H](CO)NC(=O)[C@@H](CCCCN)NC(=O)[C@@H](Cc1c[nH]c2ccccc12)NC(=O)[C@@H](CCCCN)NC(C)=O)[C@H](C)O)C(C)C)[C@H](C)O)C(=O)N[C@H](CO)C(=O)N[C@H](CCCCN)C(N)=O | Acinetobacter baumannii | – | 884, Mueller-Hinton broth | 24 h, 37 °C | 0.3 µM
C#CCN(CC(=O)O[C@H]1[C@H](C)O[C@@H](O[C@H]2[C@H](N(C)C)[C@@H](O)[C@H](O[C@H]3[C@@H](CC=O)C[C@@H](C)[C@@H](O[C@H]4CC[C@H](N(C)C)[C@@H](C)O4)/C=C/C=C/C[C@@H](C)OC(=O)C[C@@H](O)[C@@H]3OC)O[C@@H]2C)C[C@@]1(C)O)C(=O)c1ccc(C(F)(F)F)cc1 | Staphylococcus aureus, Staphylococcus epidermidis, Bacillus subtilis | – | incl. MRSA | range over four strains | 4 to 16 µM
CC[C@@H](C)[C@@H](NC(=O)[C@@H](C)NC(=O)[C@@H](CCCCN)NC(=O)[C@@H](CC(C)C)NC(=O)[C@@H](C)NC(=O)[C@H](NC(=O)[C@@H](Cc1c[nH]cn1)NC(=O)[C@@H](CC(C)C)NC(=O)[C@H](NC(=O)[C@H](NC(=O)[C@@H](CCCCN)NC(=O)[C@H](NC(=O)[C@@H](C)NC(=O)[C@@H](CO)NC(=O)[C@@H](CCCCN)NC(=O)[C@@H](Cc1ccccc1)NC(=O)[C@H](NC(=O)[C@@H](CCCCN)NC(=O)[C@@H](CC(C)C)NC(=O)[C@@H](Cc1ccccc1)NC(=O)[C@@H](CO)NC(=O)[C@@H](CCCCN)NC(=O)[C@@H](Cc1c[nH]c2ccccc12)NC(=O)[C@@H](CCCCN)NC(C)=O)[C@H](C)O)C(C)C)[C@H](C)O)C(C)C)[C@H](C)O)C(=O)N[C@H](CO)C(=O)N[C@H](CO)C(N)=O | Acinetobacter baumannii | – | 649, Mueller-Hinton broth | 24 h, 37 °C | 0.7 µM
CCCCCCCCCCCCCCCC(=O)N(C)[C@H](CO)C(=O)N[C@H](C)C(=O)NCC(=O)N(C)[C@@H]1C(=O)N[C@@H](C)C(=O)N[C@H](C(=O)O)Cc2ccc(O)c(c2)-c2cc1ccc2O[C@@H]1O[C@@H](C)[C@H](O)[C@@H](O)[C@H]1O | Streptococcus agalactiae | – | COH-1 | – | inactive
O=c1c2ccccc2sn1-c1cc(Br)cc(Br)c1 | Candida albicans | growth, broth dilution | ATCC MYA-1003 (resistant) | MIC-0 | 6.25 µg/mL
CC[C@@H](C)[C@@H](NC(=O)[C@@H](C)NC(=O)[C@@H](CCCCN)NC(=O)[C@@H](CC(C)C)NC(=O)[C@@H](CC(C)C)NC(=O)[C@H](NC(=O)[C@@H](CCCCN)NC(=O)[C@@H](CC(C)C)NC(=O)[C@@H](CCCCN)NC(=O)[C@@H](CCCCN)NC(=O)[C@@H](CCCCN)NC(=O)[C@@H](CCCCN)NC(=O)[C@@H](C)NC(=O)[C@@H](CCCCN)NC(=O)[C@@H](CO)NC(=O)[C@@H](Cc1ccccc1)NC(=O)[C@H](NC(=O)[C@@H](CCCCN)NC(=O)[C@@H](CC(C)C)NC(=O)[C@@H](Cc1ccccc1)NC(=O)[C@@H](CO)NC(=O)[C@@H](CCCCN)NC(=O)[C@@H](Cc1c[nH]c2ccccc12)NC(=O)[C@@H](CCCCN)NC(C)=O)[C@H](C)O)[C@H](C)O)C(=O)N[C@H](CO)C(=O)N[C@H](CCCCN)C(N)=O | Acinetobacter baumannii | – | 689, Mueller-Hinton broth | 24 h, 37 °C | 1.2 µM
Oc1c(Br)ccc2cccnc12 | Achromobacter xylosoxidans | agar dilution | ATCC 27061 | – | 35.7 µM
COC1C=COC2(C)Oc3c(C)c(O)c4c(c3C2=O)C2=NC3(CCN(CC(C)C)CC3)NC2=C(NC(=O)C(C)=CC=CC(C)C(O)C(C)C(O)C(C)C(OC(=O)c2cccnc2)C1C)C4=O (centres unmarked) | Mycobacteroides abscessus | microbial growth | ATCC19977 | – | 0.024 µM
CC[C@H](C)[C@@H]1NC(=O)[C@@H]([C@@H](C)O)NC(=O)CNC(=O)[C@H](CC(=O)O)NC(=O)CNC(=O)[C@H](CC(=O)O)NC(=O)CNC(=O)[C@H]2CCCCN2C(=O)[C@@H](NC(=O)[C@H](CC(=O)O)NC(=O)/C=C/CCCCCCCCCC(C)C)CNC(=O)[C@@H]2CCCN2C1=O | Staphylococcus aureus | – | MRSA USA300 | 16 h, 37 °C, with: Ca2+ 10 mM | 2 µg/mL
CC(=O)N[C@H](CCCCN)C(=O)N[C@H](CC(C)C)C(=O)N[C@H](CCCCN)C(=O)N[C@H](CO)C(=O)N[C@H](CC(C)C)C(=O)N[C@H](CC(C)C)C(=O)N[C@H](CCCCN)C(=O)N[C@@H](C(=O)N[C@H](CC(C)C)C(=O)N[C@H](CO)C(=O)N[C@H](CCCCN)C(=O)N[C@H](C)C(=O)N[C@H](CCCCN)C(=O)N[C@H](CCCCN)C(=O)N[C@H](CCCCN)C(=O)N[C@H](CCCCN)C(=O)N[C@H](CC(C)C)C(=O)N[C@H](CCCCN)C(=O)N[C@@H](C(=O)N[C@H](CC(C)C)C(=O)N[C@H](CC(C)C)C(=O)N[C@H](CCCCN)C(=O)N[C@H](C)C(=O)N[C@H](CC(C)C)C(=O)N[C@H](CO)C(=O)N[C@H](CCCCN)C(N)=O)[C@H](C)O)[C@H](C)O | Acinetobacter baumannii | broth microdilution | ATCC 17978 | 24 h, 37 °C | 0.7 µM
N#Cc1ccc2cccc(O)c2n1 | Shewanella putrefaciens | agar dilution | ATCC 8071 | – | 1500 µM

For quick reference, copied from above:
Compound | organism | test | test system | setting | MIC
CCCCCCCCCCCCCCCC(=O)O[C@H]1[C@H](C)O[C@@H](O[C@H]2[C@H](N(C)C)[C@@H](O)[C@H](O[C@H]3[C@@H](CC=O)C[C@@H](C)[C@@H](O[C@H]4CC[C@H](N(C)C)[C@@H](C)O4)/C=C/C=C/C[C@@H](C)OC(=O)C[C@@H](O)[C@@H]3OC)O[C@@H]2C)C[C@@]1(C)O | Staphylococcus aureus, Staphylococcus epidermidis, Bacillus subtilis | – | incl. MRSA | range over four strains | 4 to 32 µM
CC(=O)N[C@H](CCCCN)C(=O)N[C@H](CC(C)C)C(=O)N[C@H](CCCCN)C(=O)N[C@H](CO)C(=O)N[C@H](CC(C)C)C(=O)N[C@H](CC(C)C)C(=O)N[C@H](CCCCN)C(=O)N[C@@H](C(=O)N[C@H](CC(C)C)C(=O)N[C@H](CO)C(=O)N[C@H](CCCCN)C(=O)N[C@H](C)C(=O)N[C@H](CCCCN)C(=O)N[C@H](CCCCN)C(=O)N[C@H](CCCCN)C(=O)N[C@H](CCCCN)C(=O)N[C@H](CC(C)C)C(=O)N[C@H](CCCCN)C(=O)N[C@@H](C(=O)N[C@H](CC(C)C)C(=O)N[C@H](CC(C)C)C(=O)N[C@H](CCCCN)C(=O)N[C@H](C)C(=O)N[C@H](CC(C)C)C(=O)N[C@H](CO)C(=O)N[C@H](CCCCN)C(N)=O)[C@H](C)O)[C@H](C)O | Acinetobacter baumannii | broth microdilution | ATCC 17978 | 24 h, 37 °C | 0.7 µM
